{"data": "Assay results gathered from unrelated publications", "note": "A part holds a random share of what one study measured. Substitutions count along the parent as printed."}
{"data": "Sample 1", "target": "Interferon regulatory factor 5, full length, phosphomimetic (IRF5, Homo sapiens, UniProt Q13568-2, residues 1-514, K96S/S451D/S453D/S456D/S462D)", "technique": "protein-binding microarray", "molecule type": "double-stranded DNA, one strand shown", "matrix": "in vitro", "concentration": "250 nM", "notes": "60-bp whole probe", "with": "salmon DNA 0.4 mg/ml", "relative to": "random background probes", "reading": "higher = stronger binding", "all sequences stand within": "GCCTAGCAC … GTCTTGATTCGCTTGACGCTGCTG"}
{"Strand": "CTTGCTACACATCTCACTCTGTGCTAG", "log fluorescence": "0.274 z-score"}
{"Strand": "GTCCCTGAATGAAAACATCATGTGCTA", "log fluorescence": "0.547 z-score"}
{"Strand": "TCAGAATTTACTTTCTACGTGTGCTAG", "log fluorescence": "2.99 z-score"}
{"Strand": "TTGGGACTGGGGACTGGGTTAGTGCTA", "log fluorescence": "-0.575 z-score"}
{"Strand": "GACGAACTGATTCTCGAGACGTGCTAG", "log fluorescence": "0.0689 z-score"}
{"Strand": "TCATCTTCCCCTCTCATACTGTGCTAG", "log fluorescence": "0.14 z-score"}
{"data": "Sample 2", "target": "Histone acetyltransferase KAT6A, both winged helices, GST fusion (KAT6A, Homo sapiens, UniProt Q92794, residues 1-181)", "technique": "protein binding microarray", "molecule type": "double-stranded DNA, one strand shown", "matrix": "in vitro", "concentration": "not given", "notes": "8-mer, flanks averaged, mean of 2 arrays, mostly near background", "relative to": "not given", "reading": "higher = stronger binding", "Residues (chain)": "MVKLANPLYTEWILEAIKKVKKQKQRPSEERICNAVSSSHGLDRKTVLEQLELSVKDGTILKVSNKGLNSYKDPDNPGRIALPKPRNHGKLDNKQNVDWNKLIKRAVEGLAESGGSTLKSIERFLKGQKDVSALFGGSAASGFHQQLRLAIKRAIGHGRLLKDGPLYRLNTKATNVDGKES"}
{"Strand": "CATCAAAG", "E-score": -0.124}
{"Strand": "CGTAAACC", "E-score": 0.172}
{"Strand": "CACTGTGG", "E-score": -0.149}
{"Strand": "TACCTCCA", "E-score": -0.221}
{"Strand": "GCAAAGTA", "E-score": -0.12}
{"Strand": "CATCGTGC", "E-score": -0.0712}
{"Strand": "GATTGTGC", "E-score": -0.0163}
{"data": "Sample 3", "target": "ABI1, truncated, D143A, DHFR fusion (Arabidopsis thaliana)", "technique": "DHFR PCA, deep sequencing", "matrix": "yeast", "notes": "methotrexate growth selection, single substitutions", "with": "(+)-ABA 4.8 µM", "relative to": "wild-type fitted maximum", "reading": "higher = stronger binding", "parent": "PYL1, truncated, DHFR fusion (Arabidopsis thaliana); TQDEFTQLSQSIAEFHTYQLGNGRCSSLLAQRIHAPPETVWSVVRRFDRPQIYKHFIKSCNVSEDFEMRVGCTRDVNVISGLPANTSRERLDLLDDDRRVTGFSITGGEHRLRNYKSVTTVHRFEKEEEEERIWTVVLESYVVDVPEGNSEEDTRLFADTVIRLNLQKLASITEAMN; partner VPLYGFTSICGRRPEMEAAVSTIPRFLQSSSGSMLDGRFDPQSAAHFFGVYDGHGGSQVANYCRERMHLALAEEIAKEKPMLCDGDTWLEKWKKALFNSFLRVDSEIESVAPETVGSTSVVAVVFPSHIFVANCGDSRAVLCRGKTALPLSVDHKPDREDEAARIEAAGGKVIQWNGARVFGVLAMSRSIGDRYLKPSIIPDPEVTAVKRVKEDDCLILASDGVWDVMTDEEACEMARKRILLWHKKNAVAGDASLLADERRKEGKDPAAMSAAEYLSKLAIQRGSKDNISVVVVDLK"}
{"Variant": "H122R", "relative binding score": "2.63%"}
{"Variant": "C60H", "relative binding score": "-5.36%"}
{"Variant": "N177P", "relative binding score": "83.2%"}
{"Variant": "H122F", "relative binding score": "-9.57%"}
{"data": "Single results of other studies"}
{"Substance": "PhoQ, residues 284 288 289 292 302 303 SNGLAW", "target": "PhoP, residues 12 14 15 18 19 LWHVM (Escherichia coli, UniProt P23836)", "test": "Sort-seq, item: YFP reporter", "system": "E. coli", "conditions": "PhoQ-PhoP variant library, with: 10 µM Mg2+", "scale": "relative to: high Mg2+ state, higher = stronger signaling", "quantity": "fold induction", "value": 14.8}
{"note": "A few entries again (sample 2):"}
{"Strand": "CGTAAACC", "E-score": 0.172}
{"Strand": "GATTGTGC", "E-score": -0.0163}
{"Strand": "CATCAAAG", "E-score": -0.124}
